Published values pooled from the literature.
Numbered parts are unrelated; each lists some results of a single study.
Sequence of UniProt P45985 (whole entry, looked up): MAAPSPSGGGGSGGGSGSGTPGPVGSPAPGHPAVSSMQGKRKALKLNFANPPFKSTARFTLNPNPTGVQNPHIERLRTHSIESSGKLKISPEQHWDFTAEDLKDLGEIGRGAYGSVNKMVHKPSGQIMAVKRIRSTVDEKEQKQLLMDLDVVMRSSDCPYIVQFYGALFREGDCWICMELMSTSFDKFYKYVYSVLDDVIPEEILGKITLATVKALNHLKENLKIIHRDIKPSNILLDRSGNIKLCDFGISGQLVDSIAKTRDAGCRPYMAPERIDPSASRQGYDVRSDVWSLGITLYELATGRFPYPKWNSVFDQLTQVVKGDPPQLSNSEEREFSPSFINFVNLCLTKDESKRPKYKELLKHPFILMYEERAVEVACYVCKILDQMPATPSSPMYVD
Sequence of UniProt Q13464 (whole entry, looked up): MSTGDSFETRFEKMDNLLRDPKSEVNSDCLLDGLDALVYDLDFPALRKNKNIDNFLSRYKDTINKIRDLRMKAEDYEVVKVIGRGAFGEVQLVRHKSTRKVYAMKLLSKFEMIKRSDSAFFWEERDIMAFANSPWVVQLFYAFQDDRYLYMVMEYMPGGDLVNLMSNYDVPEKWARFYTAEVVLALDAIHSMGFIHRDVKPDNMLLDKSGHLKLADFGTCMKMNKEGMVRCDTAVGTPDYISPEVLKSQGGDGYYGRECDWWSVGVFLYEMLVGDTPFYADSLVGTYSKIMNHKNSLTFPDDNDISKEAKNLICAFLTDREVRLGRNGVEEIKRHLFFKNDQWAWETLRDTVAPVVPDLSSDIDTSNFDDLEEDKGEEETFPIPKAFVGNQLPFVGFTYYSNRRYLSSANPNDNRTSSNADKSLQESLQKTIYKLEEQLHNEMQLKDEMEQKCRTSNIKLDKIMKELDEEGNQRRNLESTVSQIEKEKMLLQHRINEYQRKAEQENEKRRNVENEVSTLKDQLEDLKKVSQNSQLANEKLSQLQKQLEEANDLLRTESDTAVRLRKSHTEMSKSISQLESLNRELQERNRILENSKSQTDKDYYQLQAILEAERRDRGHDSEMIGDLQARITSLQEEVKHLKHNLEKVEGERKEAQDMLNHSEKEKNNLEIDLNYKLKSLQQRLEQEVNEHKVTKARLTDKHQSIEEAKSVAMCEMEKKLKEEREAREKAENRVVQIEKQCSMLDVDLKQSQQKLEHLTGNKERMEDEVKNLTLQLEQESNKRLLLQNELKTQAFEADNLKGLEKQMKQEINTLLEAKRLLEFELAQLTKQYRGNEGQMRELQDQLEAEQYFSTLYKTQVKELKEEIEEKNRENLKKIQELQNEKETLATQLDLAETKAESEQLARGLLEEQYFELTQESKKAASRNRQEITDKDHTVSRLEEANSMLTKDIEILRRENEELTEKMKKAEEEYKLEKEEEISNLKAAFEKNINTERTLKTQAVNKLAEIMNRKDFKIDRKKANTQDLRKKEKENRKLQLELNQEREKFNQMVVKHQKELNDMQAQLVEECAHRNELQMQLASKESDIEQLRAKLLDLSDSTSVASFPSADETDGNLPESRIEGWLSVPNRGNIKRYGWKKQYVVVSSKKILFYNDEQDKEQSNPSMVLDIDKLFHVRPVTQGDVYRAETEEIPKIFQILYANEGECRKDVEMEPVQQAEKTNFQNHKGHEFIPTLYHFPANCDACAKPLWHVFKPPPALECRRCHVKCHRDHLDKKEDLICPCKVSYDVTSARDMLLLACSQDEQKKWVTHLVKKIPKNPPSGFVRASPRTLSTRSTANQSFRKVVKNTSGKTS
Sequence of UniProt Q9H2K8 (whole entry, looked up): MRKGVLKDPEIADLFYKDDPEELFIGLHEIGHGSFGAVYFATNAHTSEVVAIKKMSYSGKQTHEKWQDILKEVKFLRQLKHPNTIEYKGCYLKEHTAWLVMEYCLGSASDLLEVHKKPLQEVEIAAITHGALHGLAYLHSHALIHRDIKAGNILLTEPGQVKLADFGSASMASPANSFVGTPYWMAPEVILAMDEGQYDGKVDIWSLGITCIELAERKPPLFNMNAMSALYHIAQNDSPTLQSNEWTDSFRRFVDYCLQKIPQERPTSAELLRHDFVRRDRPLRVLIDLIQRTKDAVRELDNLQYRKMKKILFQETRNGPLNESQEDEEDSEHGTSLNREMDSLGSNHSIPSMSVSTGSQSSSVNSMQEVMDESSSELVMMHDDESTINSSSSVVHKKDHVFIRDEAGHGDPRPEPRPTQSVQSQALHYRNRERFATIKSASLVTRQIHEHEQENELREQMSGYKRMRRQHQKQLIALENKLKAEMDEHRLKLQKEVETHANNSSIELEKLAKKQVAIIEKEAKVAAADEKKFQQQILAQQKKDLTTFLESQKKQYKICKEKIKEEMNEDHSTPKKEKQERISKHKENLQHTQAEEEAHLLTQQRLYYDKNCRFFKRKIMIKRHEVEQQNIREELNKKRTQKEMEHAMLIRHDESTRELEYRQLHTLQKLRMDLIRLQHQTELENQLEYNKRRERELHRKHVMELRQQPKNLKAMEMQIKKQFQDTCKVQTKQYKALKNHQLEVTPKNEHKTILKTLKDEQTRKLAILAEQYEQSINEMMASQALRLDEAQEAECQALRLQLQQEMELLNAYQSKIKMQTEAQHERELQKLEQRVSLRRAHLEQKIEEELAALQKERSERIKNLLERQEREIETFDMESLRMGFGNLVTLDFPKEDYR
Sequence of UniProt P37173 (whole entry, looked up): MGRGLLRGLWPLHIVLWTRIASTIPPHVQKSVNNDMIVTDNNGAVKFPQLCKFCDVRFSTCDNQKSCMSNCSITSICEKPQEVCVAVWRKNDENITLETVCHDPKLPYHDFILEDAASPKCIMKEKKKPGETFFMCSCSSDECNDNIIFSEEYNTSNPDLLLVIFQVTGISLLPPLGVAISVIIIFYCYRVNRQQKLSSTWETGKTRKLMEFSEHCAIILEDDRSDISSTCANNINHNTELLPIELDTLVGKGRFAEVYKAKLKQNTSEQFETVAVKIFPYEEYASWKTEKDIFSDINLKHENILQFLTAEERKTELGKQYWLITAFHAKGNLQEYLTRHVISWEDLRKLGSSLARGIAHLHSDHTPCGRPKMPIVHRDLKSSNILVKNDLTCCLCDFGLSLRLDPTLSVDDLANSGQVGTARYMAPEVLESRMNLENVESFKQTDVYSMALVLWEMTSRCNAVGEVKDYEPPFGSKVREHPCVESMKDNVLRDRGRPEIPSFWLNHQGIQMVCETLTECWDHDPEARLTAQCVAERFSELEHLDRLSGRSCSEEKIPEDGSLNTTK
Sequence of UniProt Q9UBE8 (whole entry, looked up): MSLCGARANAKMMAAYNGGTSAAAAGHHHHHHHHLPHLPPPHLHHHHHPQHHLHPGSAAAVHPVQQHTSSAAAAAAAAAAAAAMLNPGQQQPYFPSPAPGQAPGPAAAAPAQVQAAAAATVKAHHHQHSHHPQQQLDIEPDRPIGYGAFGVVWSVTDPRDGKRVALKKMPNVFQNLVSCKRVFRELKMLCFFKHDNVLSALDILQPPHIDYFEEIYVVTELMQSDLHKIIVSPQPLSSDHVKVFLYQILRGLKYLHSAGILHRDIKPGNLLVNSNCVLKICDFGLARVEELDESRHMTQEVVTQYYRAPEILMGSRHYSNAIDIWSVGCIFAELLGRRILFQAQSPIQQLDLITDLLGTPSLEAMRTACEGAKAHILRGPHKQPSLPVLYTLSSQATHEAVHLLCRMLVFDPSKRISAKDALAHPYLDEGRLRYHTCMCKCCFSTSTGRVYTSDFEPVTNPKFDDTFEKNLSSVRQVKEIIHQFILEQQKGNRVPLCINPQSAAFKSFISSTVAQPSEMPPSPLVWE
Sequence of UniProt Q96SB4 (whole entry, looked up): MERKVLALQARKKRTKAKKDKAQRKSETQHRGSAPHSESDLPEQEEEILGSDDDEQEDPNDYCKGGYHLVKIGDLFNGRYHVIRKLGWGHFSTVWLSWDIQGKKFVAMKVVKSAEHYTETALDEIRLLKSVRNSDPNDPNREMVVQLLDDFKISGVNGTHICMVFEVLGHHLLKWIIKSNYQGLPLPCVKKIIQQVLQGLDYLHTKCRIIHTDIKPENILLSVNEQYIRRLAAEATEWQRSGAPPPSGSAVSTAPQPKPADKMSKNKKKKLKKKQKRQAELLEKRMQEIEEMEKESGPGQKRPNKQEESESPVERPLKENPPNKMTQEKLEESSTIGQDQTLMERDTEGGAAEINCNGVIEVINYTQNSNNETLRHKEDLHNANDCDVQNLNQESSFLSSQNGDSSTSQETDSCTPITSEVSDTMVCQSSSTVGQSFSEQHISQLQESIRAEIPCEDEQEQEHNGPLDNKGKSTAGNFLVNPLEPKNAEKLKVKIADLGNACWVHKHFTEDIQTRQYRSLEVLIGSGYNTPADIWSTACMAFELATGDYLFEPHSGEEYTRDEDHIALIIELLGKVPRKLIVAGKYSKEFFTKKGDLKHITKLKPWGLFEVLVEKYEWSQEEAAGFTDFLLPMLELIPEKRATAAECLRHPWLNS
Sequence of UniProt O60331 (whole entry, looked up): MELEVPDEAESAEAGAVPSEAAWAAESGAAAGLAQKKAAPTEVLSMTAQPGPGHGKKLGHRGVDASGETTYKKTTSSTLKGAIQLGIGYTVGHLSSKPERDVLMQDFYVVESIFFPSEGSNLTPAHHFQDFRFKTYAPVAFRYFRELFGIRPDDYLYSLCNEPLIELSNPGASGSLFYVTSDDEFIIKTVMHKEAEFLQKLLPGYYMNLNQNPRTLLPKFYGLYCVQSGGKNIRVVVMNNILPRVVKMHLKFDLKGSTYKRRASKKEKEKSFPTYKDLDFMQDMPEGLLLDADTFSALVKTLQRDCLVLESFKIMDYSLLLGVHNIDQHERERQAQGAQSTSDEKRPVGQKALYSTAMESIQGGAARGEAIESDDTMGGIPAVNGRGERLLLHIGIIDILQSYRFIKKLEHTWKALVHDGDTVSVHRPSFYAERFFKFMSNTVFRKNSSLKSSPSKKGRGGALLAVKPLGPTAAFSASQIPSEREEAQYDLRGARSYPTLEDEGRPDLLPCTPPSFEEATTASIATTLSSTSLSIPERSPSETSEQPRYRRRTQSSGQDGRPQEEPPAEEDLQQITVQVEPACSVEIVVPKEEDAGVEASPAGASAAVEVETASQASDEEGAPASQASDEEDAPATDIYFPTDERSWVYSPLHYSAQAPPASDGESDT

Study 1
SMILES: CS(=O)(=O)N1CCCC(NC(=O)[C@H](CCC2CCCCC2)NC(=O)c2ccc(CNc3ncnc4c3nnn4-c3ccccc3)cc2)C1 (some centres unmarked)
Observed: cell-free assay
Method: competition with immobilised ligand
Tested at: 0.1 µM
| target | remaining binding [%] |
| --- | --- |
| NIM1K (Homo sapiens, UniProt Q8IY84) | 60 |
| Tyrosine-protein kinase ABL1, phosphorylated (ABL1, Homo sapiens, UniProt P00519, M351T) | 100 |
| SRPK1 (Homo sapiens, UniProt Q96SB4) | 78 |
| CSNK2A2 (Homo sapiens, UniProt P19784) | 85 |
| TAOK3 (Homo sapiens, UniProt Q9H2K8) | 100 |
| HIPK1 (Homo sapiens, UniProt Q86Z02) | 100 |
| PIP4K2B (Homo sapiens, UniProt P78356) | 100 |
| NLK (Homo sapiens, UniProt Q9UBE8) | 100 |
| MAP2K4 (Homo sapiens, UniProt P45985) | 100 |
| ROCK1 (Homo sapiens, UniProt Q13464) | 93 |
| CDK2 (Homo sapiens, UniProt P24941) | 100 |
| PIP5K1C (Homo sapiens, UniProt O60331) | 85 |
| HIPK2 (Homo sapiens, UniProt Q9H2X6) | 100 |
| TGFBR2 (Homo sapiens, UniProt P37173) | 93 |

Study 2
Target: PABPC1L2, full length, GST fusion (mouse, UniProt A0ABA7IW68)
Method: RNAcompete
Form: RNA
Medium: in vitro
Tested at: 20 nM
Notes: 7-mer, probes averaged, single round
Baseline: mean of 7-mers
Direction: higher = stronger binding
| Oligonucleotide | 7-mer Z-score |
| --- | --- |
| CGUCGUU | -0.508 |
| CAGAGAG | 0.0279 |
| CAGACCG | 0.0207 |
| CUAACUA | -0.188 |
| AAGGUCU | -0.0718 |
| CUGUAUC | -0.315 |
| CAAUUAG | 0.0334 |
| UUAGCAC | -0.287 |

Study 3
Target: TAR DNA-binding protein 43, full length, His tag (TARDBP, Homo sapiens, UniProt Q13148, residues 1-414)
Method: RNA Bind-n-Seq
Form: RNA
Medium: in vitro
Tested at: 20 nM
Notes: 6-mer, flanks averaged, single round
Added: 150 mM LiCl
Baseline: input library
Direction: higher = stronger binding
| Oligonucleotide | 6-mer enrichment (R) |
| --- | --- |
| UUAACC | 0.941 |
| GAGUCG | 1.03 |
| AUCGCG | 0.929 |
| AAUUAG | 0.952 |
| AUUCAG | 0.869 |
| GAUGUA | 1.05 |
| AUGUAU | 1.22 |
| UAGCAC | 0.875 |

Other studies, line by line
| SMILES | target or system | assay | system | setting | measurement | result |
| --- | --- | --- | --- | --- | --- | --- |
| CO[C@H]1/C=C/O[C@@]2(C)Oc3c(C)c(O)c4c(O)c(c(/C=N/N5CCN(C6CCCC6)CC5)c(O)c4c3C2=O)NC(=O)/C(C)=C\C=C\[C@H](C)[C@H](O)[C@@H](C)[C@@H](O)[C@@H](C)[C@H](OC(C)=O)[C@@H]1C | Sarcocystis neurona | parasite growth |  | 10 µM, secondary screen | inhibition | -67.3% |
| NC(=O)CN1C(=O)/C(=c2\sc3nc(=O)c(-c4ccccc4)nn3c2=O)c2ccccc21 |  |  | human, microsomes or S9 | 2 µM, 0.5 h | remaining compound | > 99% |
